Assay results of several laboratories.
Protocols differ between the studies behind these lines. Several values in a cell are separate wells, animals, samples, runs or records. ± gives the spread as reported.

`O=C1CC[C@H](N2Cc3cc(N4CCNCC4)ccc3C2=O)C(=O)N1` gave a faecal excretion of 21.1% (radiolabelled compound; female SD rats; oral, 20 mg/kg, 0-168 h; relative to: dose).
`CCCCCCCC(=O)N[C@@H](CCCNC(=N)N)C(=O)N[C@@H](Cc1c[nH]c2ccccc12)C(=O)N[C@@H](CCCCN)C(=O)N[C@H](C(=O)N[C@@H](Cc1ccccc1)C(=O)N[C@@H](CCCCN)C(=O)N[C@@H](CCCCN)C(=O)N[C@H](C(=O)N[C@@H](CCC(=O)O)C(=O)N[C@@H](CCCCN)C(=O)N[C@H](C(=O)NCC(=O)N[C@@H](CCC(N)=O)C(=O)N[C@@H](CC(N)=O)C(=O)N[C@H](C(=O)N[C@@H](CCCNC(=N)N)C(=O)N[C@@H](CC(=O)O)C(=O)NCC(=O)N[C@H](C(=O)N[C@H](C(=O)N[C@@H](CCCCN)C(=O)N[C@@H](C)C(=O)NCC(=O)N1CCC[C@H]1C(=O)N[C@@H](C)C(=O)N[C@H](C(=O)N[C@@H](C)C(=O)N[C@H](C(=O)N[C@H](C(=O)NCC(=O)N[C@@H](CCC(N)=O)C(=O)N[C@@H](C)C(=O)N[C@@H](C)C(=O)N[C@H](C(=O)N[C@H](C(N)=O)[C@@H](C)CC)[C@@H](C)O)C(C)C)C(C)C)C(C)C)C(C)C)[C@@H](C)CC)[C@@H](C)CC)C(C)C)[C@@H](C)CC)[C@@H](C)CC` has a hemolysis of under 8% (mouse erythrocytes; 32 µM, 1 h, 37 °C).
`COc1ccc([C@@H]2CC(=O)c3c(O)cc(O[C@@H]4O[C@H](CO)[C@@H](O)[C@H](O)[C@H]4O[C@@H]4O[C@@H](C)[C@H](O)[C@@H](O)[C@H]4O)cc3O2)cc1O`: “plasma metabolite level” “no effect” (Sprague-Dawley rats, obese, plasma; 100 mg/kg daily, 15 days; relative to: lean rats).
`CC[C@H](C)[C@H](NC(=O)[C@H](CCCCN)NC(=O)CNC(=O)[C@H](CC(C)C)NC(=O)[C@H](Cc1ccccc1)NC(=O)[C@H](CCCCN)NC(=O)[C@H](CO)NC(=O)[C@H](Cc1ccccc1)NC(=O)[C@H](Cc1c[nH]c2ccccc12)NC(=O)[C@H](CCC(N)=O)NC(=O)[C@@H](NC(=O)[C@H](Cc1ccccc1)NC(=O)CCCCCNC(=O)CN1CCN(CC(=O)O)CCN(CC(=O)O)CCN(CC(=O)O)CC1)C(C)C)C(=O)N[C@@H](CCC(=O)O)C(=O)N1CCC[C@H]1C(=O)N[C@@H](CC(=O)O)C(=O)N[C@H](C(=O)N[C@@H](CO)C(=O)N[C@@H](CCC(N)=O)C(=O)N[C@H](C(=O)N[C@@H](CCC(N)=O)C(=O)N[C@@H](CC(=O)O)C(=O)N1CCC[C@H]1C(=O)N[C@@H](CC(N)=O)C(=O)N[C@@H](CC(=O)O)C(=O)N[C@@H](CCC(N)=O)C(=O)N[C@@H](Cc1ccc(O)cc1)C(=O)N[C@@H](CCC(=O)O)C(=O)N1CCC[C@H]1C(=O)N[C@@H](Cc1ccccc1)C(=O)O)C(C)C)C(C)C` [copper-64 labelled] has a tissue uptake of 2.2 ± 0.2 %ID/g (C57BL/6 mice, male, naive, brown fat; 1 h).
Under “blood urea nitrogen”, `C=Cc1c(C)c2cc3nc(c(CC(=O)[O-])c4[n-]c(cc5nc(cc1[n-]2)C(C)=C5CC)c(C)c4C(=O)[O-])C(CCC(=O)[O-])C3C.[Cu+2].[Na+].[Na+].[Na+]` (stereo not drawn) is recorded as 18.3 ± 2.5 mg/dL (Wistar rat, male; oral, 500 mg/kg daily, 28 days).
Under “organ-to-body weight ratio”, `O=C1NC2(CC2)COc2ncc(F)cc2[C@H]2COCCN2c2ccn3ncc1c3n2` is recorded as 2.77 ± 0.183% (Sprague-Dawley rat, male, liver; oral, 5 mg/kg/day, 4 weeks dosing, end of recovery).
`CSCC[C@H](NC(=O)CNC(=O)[C@H](CCCCN)NC(=O)[C@H](CC(C)C)NC(=O)[C@@H]1CCCN1C(=O)[C@H](CO)NC(=O)[C@H](Cc1c[nH]cn1)NC(=O)[C@H](Cc1c[nH]c2ccccc12)NC(=O)[C@H](CCCNC(=N)N)NC(=O)[C@H](CC(C)C)NC(=O)[C@H](CCCNC(=N)N)NC(=O)[C@H](Cc1c[nH]c2ccccc12)NC(=O)[C@H](CS)NC(=O)CCCCCNC(=O)CN1CCN(CC(=O)O)CCN(CC(=O)O)CCN(CC(=O)O)CC1)C(=O)O` [copper-64 labelled] gave a tissue uptake of 0.99 %ID/g (male C57BL/6J mice, B16-F10 tumour, intestinal lymph node; intravenous, 1.85 MBq, 18 h).
For `CC(=O)NCCCC[C@@H]1NC(=O)[C@H](Cc2c[nH]c3c(C)cccc23)NC(=O)[C@H]([C@@H](C)O)NC(=O)[C@H](CC(N)=O)NC(=O)[C@@H](NC(C)=O)C(C)(C)SSC(C)(C)[C@@H](C(=O)N[C@@H](Cc2ccc(OCCN)cc2)C(=O)N[C@@H](Cc2ccc3ccccc3c2)C(=O)NC2(C(=O)N[C@@H](CCC(=O)O)C(=O)N[C@@H](CC(N)=O)C(=O)N[C@@H](Cc3cccnc3)C(=O)N(C)CC(N)=O)CCOCC2)NC1=O`, “plasma protein binding” read 53.4 ± 2.7% (equilibrium dialysis; mouse, plasma; 0.1 µM).
`C=CC(=O)Nc1cccc(Cn2ncc3cnc(Nc4cnn(CCOC)c4)nc32)c1` has a blood MCV of 57.6 ± 1.98 fL (male Sprague-Dawley rat; oral, 180 mg/kg/day, day 28, 28-day subacute toxicity).
`N#[11C]c1ccc(-c2csc(NN=C3CCCC3)n2)cc1` has an unchanged compound of 5.97% and 6% (radio-HPLC; C57BL/6 mouse, plasma; intravenous, 37 MBq, 15 min).
`CC(C)[C@H](NC(=O)[C@@H](NC(=O)[C@H](CCCNC(=N)N)NC(=O)[C@H](CCCNC(=N)N)NC(=O)[C@H](CCCNC(=N)N)NC(=O)[C@H](CCC(N)=O)NC(=O)[C@H](CCCNC(=N)N)NC(=O)[C@H](CCCNC(=N)N)NC(=O)[C@H](CCCCN)NC(=O)[C@H](CCCCN)NC(=O)[C@H](CCCNC(=N)N)NC(=O)CN)[C@@H](C)O)C(=O)N[C@H](C(=O)N[C@@H](CO)C(=O)N1CCC[C@H]1C(=O)O)[C@@H](C)O` gave an organ weight of 0.482 ± 0.075 g (ICR mice, male, stomach; intranasal, 5 mg/kg daily, 4 weeks).
The urea of `CCCCCCCCCCCCCCCC(=O)N[C@@H](CCC(=O)NCCOCCOCCC(=O)NCCOCCOCCC(=O)NCCCC[C@H](NC(=O)[C@H](CC(=O)O)NC(=O)[C@H](CC(C)C)NC(=O)[C@H](Cc1ccc(O)cc1)NC(=O)[C@H](CCCCN)NC(=O)[C@H](CO)NC(=O)[C@H](Cc1ccc(O)cc1)NC(=O)[C@H](CC(=O)O)NC(=O)[C@H](CO)NC(=O)[C@@H](NC(=O)[C@H](Cc1ccccc1)NC(=O)[C@@H](NC(=O)CNC(=O)[C@H](CCC(N)=O)NC(=O)[C@@H](CO)NC(=O)[C@@H](N)Cc1c[nH]cn1)[C@@H](C)O)[C@@H](C)O)C(=O)N[C@@H](CCCNC(=N)N)C(=O)N[C@@H](CCCNC(=N)N)C(=O)N[C@@H](C)C(=O)N[C@@H](CCC(N)=O)C(=O)N[C@@H](CC(=O)O)C(=O)N[C@@H](Cc1ccccc1)C(=O)N[C@H](C(=O)N[C@@H](CCC(N)=O)C(=O)N[C@@H](Cc1c[nH]c2ccccc12)C(=O)N[C@@H](CC(C)C)C(=O)N[C@@H](CC(C)C)C(=O)N[C@@H](CC(N)=O)C(=O)N[C@H](C(=O)NCC(=O)NCC(=O)N1CCC[C@H]1C(=O)N[C@@H](CO)C(=O)N[C@@H](CO)C(=O)NCC(=O)N[C@@H](C)C(=O)N1CCC[C@H]1C(=O)N1CCC[C@H]1C(=O)N1CCC[C@H]1C(=O)N[C@@H](CO)C(N)=O)[C@@H](C)O)C(C)C)C(=O)O` is reported as 3.85 ± 0.66 mmol/L (Sprague-Dawley rat, male; subcutaneous, 20 µg/kg once daily, 14 days).
With `N=C(N)NCCC[C@H](NC(=O)[C@H](CCCNC(=N)N)NC(=O)[C@H](CCCNC(=N)N)NC(=O)[C@H](CCC(N)=O)NC(=O)[C@H](CCCNC(=N)N)NC(=O)[C@H](CCCNC(=N)N)NC(=O)[C@H](CCCCN)NC(=O)[C@H](CCCCN)NC(=O)[C@H](CCCNC(=N)N)NC(=O)CNC(=O)[C@H](Cc1ccc(O)cc1)NC(=O)[C@H](Cc1ccccc1)NC(=O)[C@H](Cc1ccccc1)NC(=O)[C@H](Cc1ccccc1)NC(=O)Cc1ccc2ccccc2c1)C(=O)O` the health score was 5 (C57BL/6 mice; intraperitoneal, 20 mg/kg, 2 h; direction not given).
The tissue uptake of `CCCC[C@H]1C(=O)N(C)[C@@H](CCCC)C(=O)N[C@@H](CCCNC(=O)CN2CCN(CC(=O)O)CCN(CC(=O)O)CCN(CC(=O)O)CC2)C(=O)N[C@H](C(=O)NCC(N)=O)CSCC(=O)N[C@@H](Cc2ccc(O)cc2)C(=O)N(C)[C@@H](C)C(=O)N[C@@H](CC(N)=O)C(=O)N2CCC[C@H]2C(=O)N[C@@H](Cc2c[nH]cn2)C(=O)N[C@@H](CC(C)C)C(=O)N(C)CC(=O)N[C@@H](Cc2c[nH]c3ccccc23)C(=O)N[C@@H](CO)C(=O)N[C@@H](Cc2c[nH]c3ccccc23)C(=O)N1C` [gallium-68 labelled] is reported as 40.8 ± 3.14 %ID/g (NOD/SCID mice with CHO-hPD-L1 xenograft, kidney; 60 min post injection).
`COCC1CN(C2CCN(c3cc(OC)c(Nc4ncc(Br)c(Nc5ccc6c(c5P(C)(C)=O)OCCO6)n4)cc3C)CC2)C1` — result for “treatment-related AEs leading to death”: 0% (phase 1 trial; human, advanced EGFR-mutant NSCLC; oral, dose not given).
`CC(C)[C@@H]1NC(=O)CNC(=O)[C@H](CC(N)=O)NC(=O)[C@H](CCCNC(=N)N)NC(=O)[C@H](Cc2ccc(O)cc2)NC(=O)[C@H](C(C)C)NC(=O)[C@@H](NC(=O)[C@@H](NC(=O)[C@H](CC(N)=O)NC(=O)[C@H](Cc2c[nH]c3ccccc23)NC(=O)[C@H](C)NC(=O)[C@H](Cc2ccccc2)NC(=O)CNC(=O)[C@H](CCCCN)NC(=O)[C@H](Cc2ccccc2)NC(=O)[C@H](Cc2ccccc2)NC(=O)[C@H](CCCCN)NC(=O)OCC2c3ccccc3-c3ccccc32)C(C)C)CSSC[C@@H](C(=O)N[C@@H](Cc2c[nH]cn2)C(=O)N[C@@H](CCCNC(=N)N)C(=O)N[C@@H](CCCNC(=N)N)C(=O)N[C@@H](C)C(=O)N[C@@H](CC(N)=O)C(N)=O)NC(=O)[C@H](C(C)C)NC(=O)[C@H](CCCNC(=N)N)NC1=O` gave a calcium of 1.35 ± 0.03 mmol/L (ICR mouse, blood; intramammary, 5 mg/kg, day 5, 3 d dosing).
For `CC(C)C[C@@H](NC(=O)[C@@H](CCCNC(=N)N)NC(=O)[C@@H](Cc1c[nH]cn1)NC(=O)[C@@H](Cc1c[nH]c2ccccc12)NC(=O)[C@@H](Cc1c[nH]cn1)NC(=O)[C@@H](Cc1ccccc1)NC(=O)[C@H](NC(=O)[C@@H](Cc1ccc(O)cc1)NC(=O)CNC(=O)CNC(=O)CCOCCOCCOCCNC(=O)CN1CCN(CC(=O)O)CCN(CC(=O)O)CC1)[C@H](C)O)C(=O)N[C@H](CC(N)=O)C(=O)N1CCC[C@@H]1C(=O)O` [gallium-68 labelled], the absorbed dose was 0.0182 ± 5.55e-05 mSv/MBq (human female, from C57BL/6 mouse, osteogenic cells).
The tissue uptake of `CN1Cc2cc(Cl)ccc2-n2c(nnc2C2CCN(c3cccc([18F])n3)CC2)C1` is reported as 7.64 ± 1.34 %ID/g (C57BL/6 mouse male, pancreas; intravenous, dose not given, 5 min, together with: blocking agent 10 mg/kg).

Some of these lines once more:
`CC(C)[C@@H]1NC(=O)CNC(=O)[C@H](CC(N)=O)NC(=O)[C@H](CCCNC(=N)N)NC(=O)[C@H](Cc2ccc(O)cc2)NC(=O)[C@H](C(C)C)NC(=O)[C@@H](NC(=O)[C@@H](NC(=O)[C@H](CC(N)=O)NC(=O)[C@H](Cc2c[nH]c3ccccc23)NC(=O)[C@H](C)NC(=O)[C@H](Cc2ccccc2)NC(=O)CNC(=O)[C@H](CCCCN)NC(=O)[C@H](Cc2ccccc2)NC(=O)[C@H](Cc2ccccc2)NC(=O)[C@H](CCCCN)NC(=O)OCC2c3ccccc3-c3ccccc32)C(C)C)CSSC[C@@H](C(=O)N[C@@H](Cc2c[nH]cn2)C(=O)N[C@@H](CCCNC(=N)N)C(=O)N[C@@H](CCCNC(=N)N)C(=O)N[C@@H](C)C(=O)N[C@@H](CC(N)=O)C(N)=O)NC(=O)[C@H](C(C)C)NC(=O)[C@H](CCCNC(=N)N)NC1=O` gave a calcium of 1.35 ± 0.03 mmol/L (ICR mouse, blood; intramammary, 5 mg/kg, day 5, 3 d dosing).
`C=CC(=O)Nc1cccc(Cn2ncc3cnc(Nc4cnn(CCOC)c4)nc32)c1` has a blood MCV of 57.6 ± 1.98 fL (male Sprague-Dawley rat; oral, 180 mg/kg/day, day 28, 28-day subacute toxicity).
Under “blood urea nitrogen”, `C=Cc1c(C)c2cc3nc(c(CC(=O)[O-])c4[n-]c(cc5nc(cc1[n-]2)C(C)=C5CC)c(C)c4C(=O)[O-])C(CCC(=O)[O-])C3C.[Cu+2].[Na+].[Na+].[Na+]` (stereo not drawn) is recorded as 18.3 ± 2.5 mg/dL (Wistar rat, male; oral, 500 mg/kg daily, 28 days).
